Results collected from several papers.
Protocols differ between the studies behind these lines. ± gives the spread as reported.
4'-phosphopantetheinyl transferase PptT: 4'-phosphopantetheinyl transferase PptT (Mycobacterium tuberculosis, UniProt O33336)
Chain of UniProt O33336 (whole entry, looked up): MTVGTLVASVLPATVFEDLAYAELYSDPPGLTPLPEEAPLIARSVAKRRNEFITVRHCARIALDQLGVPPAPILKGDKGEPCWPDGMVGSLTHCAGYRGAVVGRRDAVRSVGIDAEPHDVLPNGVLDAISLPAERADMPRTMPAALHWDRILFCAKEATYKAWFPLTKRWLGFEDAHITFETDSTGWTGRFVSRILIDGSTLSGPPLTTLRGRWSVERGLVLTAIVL
AMC4: Metacaspase-4 (AMC4, Arabidopsis thaliana, UniProt O64517)
Chain of UniProt O64517 (whole entry, looked up): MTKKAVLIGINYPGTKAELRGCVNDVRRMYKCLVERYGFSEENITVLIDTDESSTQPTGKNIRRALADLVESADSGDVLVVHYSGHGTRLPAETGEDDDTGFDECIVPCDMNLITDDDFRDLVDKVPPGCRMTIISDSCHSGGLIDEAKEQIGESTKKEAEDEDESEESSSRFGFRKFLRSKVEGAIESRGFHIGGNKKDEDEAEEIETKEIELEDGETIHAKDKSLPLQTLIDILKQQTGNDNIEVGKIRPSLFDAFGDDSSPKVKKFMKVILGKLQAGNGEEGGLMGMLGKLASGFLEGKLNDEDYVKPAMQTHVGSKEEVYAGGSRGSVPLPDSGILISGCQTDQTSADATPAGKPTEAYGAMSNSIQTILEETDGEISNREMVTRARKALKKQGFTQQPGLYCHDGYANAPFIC
Slc6a4: Sodium-dependent serotonin transporter (Slc6a4, Rattus norvegicus, UniProt P31652)
Chain of UniProt P31652 (whole entry, looked up): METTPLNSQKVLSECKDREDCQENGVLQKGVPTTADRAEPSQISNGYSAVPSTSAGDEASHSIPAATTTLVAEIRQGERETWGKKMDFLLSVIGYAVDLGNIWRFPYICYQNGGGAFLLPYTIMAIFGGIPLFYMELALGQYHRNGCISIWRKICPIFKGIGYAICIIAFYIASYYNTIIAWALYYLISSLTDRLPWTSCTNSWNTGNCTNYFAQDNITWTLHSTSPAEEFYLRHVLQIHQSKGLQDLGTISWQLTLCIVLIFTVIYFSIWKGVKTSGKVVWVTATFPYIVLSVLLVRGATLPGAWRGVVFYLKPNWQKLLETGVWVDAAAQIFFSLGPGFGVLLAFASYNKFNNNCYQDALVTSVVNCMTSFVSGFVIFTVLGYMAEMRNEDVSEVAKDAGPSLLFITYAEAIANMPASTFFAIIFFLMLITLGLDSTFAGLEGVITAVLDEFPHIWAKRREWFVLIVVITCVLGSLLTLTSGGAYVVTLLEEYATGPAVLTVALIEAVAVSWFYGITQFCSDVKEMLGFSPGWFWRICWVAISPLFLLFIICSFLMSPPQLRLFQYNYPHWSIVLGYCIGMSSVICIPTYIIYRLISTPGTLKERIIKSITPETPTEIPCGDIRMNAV
Chain of UniProt Q9HAC7 (whole entry, looked up): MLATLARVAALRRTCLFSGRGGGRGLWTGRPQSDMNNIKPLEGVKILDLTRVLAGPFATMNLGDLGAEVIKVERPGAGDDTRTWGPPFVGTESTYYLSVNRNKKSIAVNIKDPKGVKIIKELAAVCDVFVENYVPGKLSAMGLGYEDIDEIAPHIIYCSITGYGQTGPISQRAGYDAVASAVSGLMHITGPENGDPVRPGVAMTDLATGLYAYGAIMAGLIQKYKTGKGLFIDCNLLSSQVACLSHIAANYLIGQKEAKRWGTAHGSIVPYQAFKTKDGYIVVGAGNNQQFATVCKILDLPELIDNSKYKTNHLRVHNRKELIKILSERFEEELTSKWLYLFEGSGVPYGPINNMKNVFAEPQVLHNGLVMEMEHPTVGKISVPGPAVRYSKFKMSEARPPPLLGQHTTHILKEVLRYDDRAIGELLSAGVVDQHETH
Chain of UniProt P00346 (whole entry, looked up): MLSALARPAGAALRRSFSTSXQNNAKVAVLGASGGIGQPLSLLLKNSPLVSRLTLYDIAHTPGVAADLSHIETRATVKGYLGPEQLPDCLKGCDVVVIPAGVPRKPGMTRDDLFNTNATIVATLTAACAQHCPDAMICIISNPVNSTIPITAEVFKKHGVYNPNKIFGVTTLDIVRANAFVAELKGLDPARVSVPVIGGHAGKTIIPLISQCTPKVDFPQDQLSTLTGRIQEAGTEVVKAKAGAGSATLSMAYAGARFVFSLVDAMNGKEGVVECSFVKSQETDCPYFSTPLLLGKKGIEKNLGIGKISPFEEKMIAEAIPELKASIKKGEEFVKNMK

CCNC(=N)NC(=O)Nc1ccccc1CN1CCCCC1
IC50 (4'-phosphopantetheinyl transferase PptT; inhibitor): > 100 µM

CCCCC(=O)N(Cc1ccc(-c2ccccc2-c2nnn[nH]2)cc1)[C@H](C(=O)O)C(C)C
IC50 (Succinyl-CoA:glutarate CoA-transferase (SUGCT, Homo sapiens, UniProt Q9HAC7); enzyme activity, inhibitor, fluorometric coupled; pH 7.44, 100 mM Tris-HCl buffer): 16.3 µM

COc1cc(C=C2C(=O)NC(=S)N(c3cccc(Cl)c3)C2=O)cc(Br)c1O
IC50 (AMC4; enzyme activity, inhibitor; pH 7.5, 50 mM CaCl2, together with: VRPR-AMC 50 µM): > 200 µM

CNC(C)C(=O)c1ccc2c(c1)OCO2 (stereo not drawn)
IC50 (Slc6a4; rat): 1.58 ± 0.18 µM

CCNc1c(NC(=O)Nc2c(CC)cccc2CC)c(=O)c1=O
IC50 (4'-phosphopantetheinyl transferase PptT; inhibitor): > 100 µM

Cc1nc2ccc(CN(C)c3ccc(C(=O)N[C@@H](CCC(=O)O)C(=O)O)s3)cc2c(=O)[nH]1
IC50 (4'-phosphopantetheinyl transferase PptT; enzyme activity, inhibitor, fluorescence polarization): 0.096 µM

CCCCCc1cc(O)c(C/C=C(\C)CCC=C(C)C)c(O)c1C(=O)O
IC50 (MDH2 (Sus scrofa, UniProt P00346)): 50 µM

CCNC(CC)C(=O)c1ccc2c(c1)OCO2 (stereo not drawn)
IC50 (Slc6a4; rat): 0.69 ± 0.05 µM

O=C1NC(=S)N(c2ccccc2)C(=O)C1=Cc1ccc(O)cc1
IC50 (AMC4; enzyme activity, inhibitor; pH 7.5, 50 mM CaCl2, together with: VRPR-AMC 50 µM): > 200 µM

CCNC(=NC(=O)OC(C)(C)C)NC(=O)Nc1c(CC)cc(NS(=O)(=O)c2ccccc2)cc1CC
IC50 (4'-phosphopantetheinyl transferase PptT; inhibitor): > 100 µM

O=C1NC(=S)N(c2ccc(Cl)cc2)C(=O)C1=Cc1ccc(I)o1
IC50 (AMC4; enzyme activity, inhibitor; pH 7.5, 50 mM CaCl2, together with: VRPR-AMC 50 µM): 29 µM

CCNC(=N)NC(=O)Nc1ccc2c(c1)OCO2
IC50 (4'-phosphopantetheinyl transferase PptT; inhibitor): > 100 µM
